# Values quoted from earlier work, collected from citations in different studies.
# Compare with care: the assays were run in different laboratories. Values joined by “and” are separate records of one study, mostly repeats; a detail may differ. ± marks the error that the study gave.
SMILES,tested on,assay,test system,conditions,quantity,value
Nc1ccc(-c2cc(Cl)c(Cl)c3[nH]c4c(c23)CN(C(=O)CO)CC4)cn1,cGAS mouse,,,concentration not given,inhibition,inactive
Cc1cccc(C2NC(=O)c3c(Cl)cccc3N2)c1 (racemic),SMARCA4 bromodomain,DSF and ITC,,"concentration not given, racemate",binding,no binding
CC(=O)Nc1ncc(SCc2ncc(C(C)(C)C)o2)s1,CDK4/6,"kinase activity, inhibitor",,,IC50,0.00426 µM
C/C=C/Cn1c(Cc2cc(OC)c(OC)c(OC)c2)nc2c(N)ncnc21,Hsp90β,"binding, fluorescence polarization competition",,,IC50,89.8 ± 12.6 µM
CCC(C)NC(=O)CSc1nnc(Nc2ccc(C(C)C)cc2)s1 (stereo not drawn),,,simulated gastric fluid,"2 h, pH 1.2",remaining compound,> 95%
CNc1nc(C)c(-c2nc(Nc3ccc(N4CCC(N)CC4)cn3)ncc2F)s1,CDK4/6,"kinase activity, inhibitor",,,IC50,41.5 µM
c1ccc(C(CCn2ccnc2)(c2ccccc2)c2ccccc2)cc1,CYP125 Mycobacterium tuberculosis,,,,Kd,13.1 ± 0.9 µM
CC(=O)NCCCC[C@H](NC(=O)CNC(=O)[C@H](CC(C)C)NC(C)=O)C(=O)Nc1ccc2c(C)cc(=O)oc2c1,human HDAC2,substrate,,,Km,3000 nM
CCC[C@@H]([C@@H](CC(C)C)C(=O)N[C@@H](CCCCNC(=O)OCc1ccccc1)C(=O)Nc1nccs1)N(O)C=O,recombinant ADAM10,"enzyme activity, inhibitor",,,IC50,0.0115 µM
c1ccc(CCN2CCN(c3cc(N4CCCC4)nc(N4CCCC4)n3)CC2)cc1,caspase-4,inhibitor,,range shared with caspase-1,Ki,0.008 to 0.016 µM
CCn1cnc2ccc3nc(C(=N)OCc4ccccc4)sc3c2c1=O,CDK4/6,"kinase activity, inhibitor",,,IC50,38 µM
COc1ccccc1CNCCCCCCN1CCC(CCC2CCN(CCCCCCNCc3ccccc3OC)CC2)CC1,human SSAO/VAP-1,,,inactive as substrate or inhibitor,Ki,> 100 µM and 111 µM

# Some of these lines once more:
SMILES,tested on,assay,test system,conditions,quantity,value
CCC[C@@H]([C@@H](CC(C)C)C(=O)N[C@@H](CCCCNC(=O)OCc1ccccc1)C(=O)Nc1nccs1)N(O)C=O,recombinant ADAM10,"enzyme activity, inhibitor",,,IC50,0.0115 µM
